Published values gathered from unrelated publications.
Each line is one published result; not all experiments were run side by side. ± gives the spread as reported.
sdiA: Regulatory protein SdiA (sdiA, Escherichia coli, UniProt P07026)
Sequence of UniProt P07026 (whole entry, looked up): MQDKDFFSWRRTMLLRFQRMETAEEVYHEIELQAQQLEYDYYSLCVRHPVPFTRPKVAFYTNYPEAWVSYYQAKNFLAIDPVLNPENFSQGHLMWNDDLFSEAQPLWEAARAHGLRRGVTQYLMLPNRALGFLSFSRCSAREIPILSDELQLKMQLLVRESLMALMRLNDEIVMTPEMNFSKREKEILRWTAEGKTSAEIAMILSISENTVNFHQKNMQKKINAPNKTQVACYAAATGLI
ADCYAP1R1 del89-109: Pituitary adenylate cyclase-activating polypeptide type I receptor (ADCYAP1R1, Homo sapiens, UniProt P41586, del89-109)
Sequence of UniProt P41586 (whole entry, unmodified, looked up): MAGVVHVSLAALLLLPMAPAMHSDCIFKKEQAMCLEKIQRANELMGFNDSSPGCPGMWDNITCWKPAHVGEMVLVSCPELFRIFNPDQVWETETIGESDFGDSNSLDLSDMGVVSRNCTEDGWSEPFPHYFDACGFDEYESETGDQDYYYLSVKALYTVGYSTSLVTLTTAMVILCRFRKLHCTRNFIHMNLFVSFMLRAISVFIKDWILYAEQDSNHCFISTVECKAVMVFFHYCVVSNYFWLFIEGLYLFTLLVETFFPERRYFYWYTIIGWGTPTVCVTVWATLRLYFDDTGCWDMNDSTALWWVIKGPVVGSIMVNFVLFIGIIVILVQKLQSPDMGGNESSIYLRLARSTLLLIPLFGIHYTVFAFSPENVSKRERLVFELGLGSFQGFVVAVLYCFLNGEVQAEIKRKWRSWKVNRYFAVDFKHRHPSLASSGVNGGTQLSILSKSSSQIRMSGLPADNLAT
Sequence of UniProt P41143 (whole entry, unmodified, looked up): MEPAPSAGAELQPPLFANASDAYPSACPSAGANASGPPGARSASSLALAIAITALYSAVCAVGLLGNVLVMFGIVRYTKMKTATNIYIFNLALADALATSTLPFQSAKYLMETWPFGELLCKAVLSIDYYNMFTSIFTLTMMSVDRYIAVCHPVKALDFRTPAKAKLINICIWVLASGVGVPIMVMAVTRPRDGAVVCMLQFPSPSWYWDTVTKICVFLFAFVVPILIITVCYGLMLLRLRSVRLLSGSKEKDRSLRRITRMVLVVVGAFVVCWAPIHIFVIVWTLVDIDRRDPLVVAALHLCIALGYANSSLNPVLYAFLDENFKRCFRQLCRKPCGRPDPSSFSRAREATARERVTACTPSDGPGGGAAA
Sequence of UniProt P11712 (whole entry, looked up): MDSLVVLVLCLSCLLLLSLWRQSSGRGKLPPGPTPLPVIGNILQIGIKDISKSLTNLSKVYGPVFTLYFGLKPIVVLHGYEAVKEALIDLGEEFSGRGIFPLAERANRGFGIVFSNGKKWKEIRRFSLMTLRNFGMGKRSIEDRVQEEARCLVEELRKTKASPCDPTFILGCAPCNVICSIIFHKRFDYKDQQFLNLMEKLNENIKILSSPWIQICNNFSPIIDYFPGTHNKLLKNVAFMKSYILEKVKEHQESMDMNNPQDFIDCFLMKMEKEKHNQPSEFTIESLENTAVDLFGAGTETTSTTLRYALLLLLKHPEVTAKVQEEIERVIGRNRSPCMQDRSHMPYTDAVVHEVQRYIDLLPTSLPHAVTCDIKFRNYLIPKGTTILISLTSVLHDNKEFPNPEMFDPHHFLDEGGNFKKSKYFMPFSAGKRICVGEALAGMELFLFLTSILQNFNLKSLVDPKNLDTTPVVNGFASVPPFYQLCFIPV
Sequence of UniProt Q8BZ39 (whole entry, looked up): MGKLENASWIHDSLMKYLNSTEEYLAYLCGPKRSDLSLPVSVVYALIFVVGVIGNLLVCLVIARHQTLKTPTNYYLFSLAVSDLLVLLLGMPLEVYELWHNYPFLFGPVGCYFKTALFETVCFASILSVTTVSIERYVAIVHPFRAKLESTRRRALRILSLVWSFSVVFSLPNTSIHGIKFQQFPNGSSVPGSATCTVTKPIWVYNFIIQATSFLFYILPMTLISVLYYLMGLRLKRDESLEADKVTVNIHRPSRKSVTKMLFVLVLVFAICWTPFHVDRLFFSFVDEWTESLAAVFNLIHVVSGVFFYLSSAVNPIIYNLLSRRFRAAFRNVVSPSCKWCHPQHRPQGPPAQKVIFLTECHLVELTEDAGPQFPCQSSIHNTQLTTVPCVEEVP
Sequence of UniProt P50391 (whole entry, looked up): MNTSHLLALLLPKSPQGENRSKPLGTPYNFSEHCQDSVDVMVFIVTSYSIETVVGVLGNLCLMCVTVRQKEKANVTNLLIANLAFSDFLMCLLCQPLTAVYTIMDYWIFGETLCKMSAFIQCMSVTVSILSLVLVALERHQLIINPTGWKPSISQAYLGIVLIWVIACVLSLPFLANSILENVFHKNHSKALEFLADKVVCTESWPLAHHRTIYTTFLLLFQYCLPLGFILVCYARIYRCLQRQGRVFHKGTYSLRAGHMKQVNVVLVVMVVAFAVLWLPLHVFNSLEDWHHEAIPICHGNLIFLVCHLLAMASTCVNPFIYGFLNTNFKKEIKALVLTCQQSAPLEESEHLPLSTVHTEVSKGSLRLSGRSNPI

CCCCCCCCCCCCCCCCCC(=O)NC[C@H]1CC[C@H](C(=O)N[C@@H](CCC(=O)NCCCOCCOCCOCCCNC(=O)COCC(=O)N[C@@H](Cc2ccc(O)cc2)C(=O)NC(C)(Cc2ccccc2)C(=O)N[C@@H](CC(C)C)C(=O)N[C@@H](CCCC)C(=O)N[C@@H](CCCNC(=N)N)C(=O)N2CCC[C@H]2C(=O)N[C@@H](CCCNC(=N)NC)C(=O)N[C@@H](CC(N)=O)C(N)=O)C(=O)O)CC1 (stereo partly shown)  EC50 (Neuromedin-U receptor 2 (Mus musculus, UniProt Q8BZ39); inositol phosphate, agonist): 0.933 nM
O=C(Cc1cccc([N+](=O)[O-])c1)N[C@H]1CCOC1=O  EC50 (sdiA): 1.6 nM
Cc1ccc(N2CC3CC(C2)N3C)cc1C(=O)NC1(c2ccc3c4c(cccc24)C(=O)N3C)CC1  IC50 (Cytochrome P450 2C9 (CYP2C9, Homo sapiens, UniProt P11712); enzyme activity, inhibitor): > 50000 nM
CSCC[C@H](NC(=O)[C@H](CCC(N)=O)NC(=O)[C@H](CCCCN)NC(=O)[C@H](CCCNC(=N)N)NC(=O)[C@H](Cc1ccc(O)cc1)NC(=O)[C@H](CCCNC(=N)N)NC(=O)[C@H](CO)NC(=O)[C@H](Cc1ccc(O)cc1)NC(=O)[C@H](CO)NC(=O)[C@H](CC(=O)O)NC(=O)[C@@H](NC(=O)[C@@H](N)Cc1ccccc1)[C@@H](C)O)C(=O)N[C@@H](C)C(=O)N[C@H](C(=O)N[C@@H](CCCCN)C(=O)N[C@@H](CCCCN)C(=O)N[C@@H](Cc1ccc(O)cc1)C(=O)N[C@@H](CC(C)C)C(=O)N[C@@H](C)C(=O)N[C@@H](C)C(=O)N[C@H](C(=O)N[C@@H](CC(C)C)C(=O)NCC(=O)N[C@@H](CCCCN)C(=O)N[C@@H](CCCNC(=N)N)C(=O)N[C@@H](Cc1ccc(O)cc1)C(=O)N[C@@H](CCCCN)C(=O)N[C@@H](CCC(N)=O)C(=O)N[C@@H](CCCCn1cc(C[C@H](NC(=O)CNC(=O)[C@H](CO)NC(=O)[C@H](CCCNC(=N)N)NC(=O)[C@H](CO)NC(=O)[C@H](CC(C)C)NC(=O)[C@H](CC(C)C)NC(=O)CNC(=O)[C@H](C)NC(=O)[C@H](CC(C)C)NC(=O)[C@H](CCCNC(=N)N)NC(=O)[C@H](Cc2c[nH]cn2)NC(=O)[C@@H](NC(=O)[C@@H](N)C(C)C)[C@@H](C)O)C(=O)N[C@H](C(=O)N[C@H](C(=O)N[C@@H](CCCCN)C(=O)N[C@@H](CC(N)=O)C(=O)N[C@@H](CC(N)=O)C(=O)N[C@@H](Cc2ccccc2)C(=O)N[C@H](C(=O)N2CCC[C@H]2C(=O)N[C@H](C(=O)N[C@@H](CC(N)=O)C(=O)N[C@H](C(=O)NCC(=O)N[C@@H](CO)C(=O)N[C@@H](CCCCN)C(=O)N[C@@H](C)C(=O)N[C@@H](Cc2ccccc2)C(N)=O)C(C)C)[C@@H](C)O)C(C)C)C(C)C)C(C)C)nn1)C(=O)N[C@H](C(=O)N[C@@H](CCCCN)C(=O)N[C@@H](CC(N)=O)C(=O)N[C@@H](CCCCN)C(N)=O)C(C)C)C(C)C)C(C)C  Kb (ADCYAP1R1 del89-109; cAMP accumulation, antagonist; COS-7 transfected; from pA2, single concentration, together with: PACAP-38): 3800 nM
Cc1cc(O)cc(C)c1C[C@H](N)C(=O)N[C@H](CCCNC(=N)N)C(=O)N[C@@H](Cc1ccccc1)C(=O)N(C)CC(=O)N(C)Cc1cc(C(F)(F)F)cc(C(F)(F)F)c1  Ki (OPRD1 (Homo sapiens, UniProt P41143, K108D)): 1.17 ± 0.68 nM
COc1cccc(CC(=O)N[C@H]2CCOC2=O)c1  EC50 (sdiA): 1.42 nM
CSCC[C@H](NC(=O)[C@H](CCC(N)=O)NC(=O)[C@H](CCCCN)NC(=O)[C@H](CCCNC(=N)N)NC(=O)[C@H](Cc1ccc(O)cc1)NC(=O)[C@H](CCCNC(=N)N)NC(=O)[C@H](CO)NC(=O)[C@H](Cc1ccc(O)cc1)NC(=O)[C@H](CO)NC(=O)[C@H](CC(=O)O)NC(=O)[C@@H](NC(=O)[C@@H](N)Cc1ccccc1)[C@@H](C)O)C(=O)N[C@@H](C)C(=O)N[C@H](C(=O)N[C@@H](CCCCN)C(=O)N[C@@H](CCCCn1cc(C[C@H](NC(=O)CNC(=O)[C@H](CO)NC(=O)[C@H](CCCNC(=N)N)NC(=O)[C@H](CO)NC(=O)[C@H](CC(C)C)NC(=O)[C@H](CC(C)C)NC(=O)CNC(=O)[C@H](C)NC(=O)[C@H](CC(C)C)NC(=O)[C@H](CCCNC(=N)N)NC(=O)[C@H](Cc2c[nH]cn2)NC(=O)[C@@H](NC(=O)[C@@H](N)C(C)C)[C@@H](C)O)C(=O)N[C@H](C(=O)N[C@H](C(=O)N[C@@H](CCCCN)C(=O)N[C@@H](CC(N)=O)C(=O)N[C@@H](CC(N)=O)C(=O)N[C@@H](Cc2ccccc2)C(=O)N[C@H](C(=O)N2CCC[C@H]2C(=O)N[C@H](C(=O)N[C@@H](CC(N)=O)C(=O)N[C@H](C(=O)NCC(=O)N[C@@H](CO)C(=O)N[C@@H](CCCCN)C(=O)N[C@@H](C)C(=O)N[C@@H](Cc2ccccc2)C(N)=O)C(C)C)[C@@H](C)O)C(C)C)C(C)C)C(C)C)nn1)C(=O)N[C@@H](Cc1ccc(O)cc1)C(=O)N[C@@H](CC(C)C)C(=O)N[C@@H](C)C(=O)N[C@@H](C)C(=O)N[C@H](C(=O)N[C@@H](CC(C)C)C(=O)NCC(=O)N[C@@H](CCCCN)C(=O)N[C@@H](CCCNC(=N)N)C(=O)N[C@@H](Cc1ccc(O)cc1)C(=O)N[C@@H](CCCCN)C(=O)N[C@@H](CCC(N)=O)C(=O)N[C@@H](CCCNC(=N)N)C(=O)N[C@H](C(=O)N[C@@H](CCCCN)C(=O)N[C@@H](CC(N)=O)C(=O)N[C@@H](CCCCN)C(N)=O)C(C)C)C(C)C)C(C)C  Kb (ADCYAP1R1 (Homo sapiens, UniProt P41586); cAMP accumulation, antagonist; COS-7 transfected; from pA2, single concentration, together with: PACAP-38): 2570 nM
CC(=O)N[C@@H](CCCNC(=N)N)C(=O)N[C@@H](Cc1ccc(O)cc1)C(=O)N[C@H]1CCCNC(=N)NC(=O)NCCCCNC(=O)[C@H](Cc2ccc(O)cc2)NC(=O)[C@H](CCCNC(=N)N)NC(=O)[C@H](CC(C)C)NC1=O  Kb (NPY4R (Homo sapiens, UniProt P50391); β-arrestin-1 recruitment, antagonist; HEK293T-ARRB1; together with: 3 nM human pancreatic polypeptide): 2920 ± 880 nM
CSCC[C@H](NC(=O)[C@H](CCC(N)=O)NC(=O)[C@H](CCCCN)NC(=O)[C@H](CCCNC(=N)N)NC(=O)[C@H](Cc1ccc(O)cc1)NC(=O)[C@H](CCCNC(=N)N)NC(=O)[C@H](CO)NC(=O)[C@H](Cc1ccc(O)cc1)NC(=O)[C@H](CO)NC(=O)[C@H](CC(=O)O)NC(=O)[C@@H](NC(=O)[C@@H](N)Cc1ccccc1)[C@@H](C)O)C(=O)N[C@@H](C)C(=O)N[C@H](C(=O)N[C@@H](CCCCN)C(=O)N[C@@H](CCCCN)C(=O)N[C@@H](Cc1ccc(O)cc1)C(=O)N[C@@H](CC(C)C)C(=O)N[C@@H](C)C(=O)N[C@@H](C)C(=O)N[C@H](C(=O)N[C@@H](CC(C)C)C(=O)NCC(=O)N[C@@H](CCCCN)C(=O)N[C@@H](CCCNC(=N)N)C(=O)N[C@@H](Cc1ccc(O)cc1)C(=O)N[C@@H](CCCCN)C(=O)N[C@@H](CCC(N)=O)C(=O)N[C@@H](CCCNC(=N)N)C(=O)N[C@H](C(=O)N[C@@H](CCCCN)C(=O)N[C@@H](CC(N)=O)C(=O)N[C@@H](CCCCn1cc(C[C@H](NC(=O)CNC(=O)[C@H](CO)NC(=O)[C@H](CCCNC(=N)N)NC(=O)[C@H](CO)NC(=O)[C@H](CC(C)C)NC(=O)[C@H](CC(C)C)NC(=O)CNC(=O)[C@H](C)NC(=O)[C@H](CC(C)C)NC(=O)[C@H](CCCNC(=N)N)NC(=O)[C@H](Cc2c[nH]cn2)NC(=O)[C@@H](NC(=O)[C@@H](N)C(C)C)[C@@H](C)O)C(=O)N[C@H](C(=O)N[C@H](C(=O)N[C@@H](CCCCN)C(=O)N[C@@H](CC(N)=O)C(=O)N[C@@H](CC(N)=O)C(=O)N[C@@H](Cc2ccccc2)C(=O)N[C@H](C(=O)N2CCC[C@H]2C(=O)N[C@H](C(=O)N[C@@H](CC(N)=O)C(=O)N[C@H](C(=O)NCC(=O)N[C@@H](CO)C(=O)N[C@@H](CCCCN)C(=O)N[C@@H](C)C(=O)N[C@@H](Cc2ccccc2)C(N)=O)C(C)C)[C@@H](C)O)C(C)C)C(C)C)C(C)C)nn1)C(N)=O)C(C)C)C(C)C)C(C)C  Kb (ADCYAP1R1 del89-109; cAMP, antagonist): > 10000 nM
CSCC[C@@H]1NC(=O)[C@H](Cc2ccccc2)NC(=O)[C@@H](NC(=O)[C@@H](C)N)CSC(=O)[C@H](C(C)C)NC(=O)[C@H](Cc2ccccc2)NC1=O  EC50 (Histidine kinase AgrC (Listeria monocytogenes, UniProt A8E0G3)): 96.9 nM

For quick reference, copied from above:
Cc1cc(O)cc(C)c1C[C@H](N)C(=O)N[C@H](CCCNC(=N)N)C(=O)N[C@@H](Cc1ccccc1)C(=O)N(C)CC(=O)N(C)Cc1cc(C(F)(F)F)cc(C(F)(F)F)c1  Ki (OPRD1 (Homo sapiens, UniProt P41143, K108D)): 1.17 ± 0.68 nM
